Measurements collected from several papers.
Lines come from different studies, so protocols differ. Several values in a cell are separate wells, animals, samples, runs or records. ± gives the spread as reported.
APP: Amyloid-beta precursor protein (APP, Homo sapiens, UniProt P05067)
APP Aβ40 fibrils: Amyloid-beta precursor protein, Aβ40 fibrils (APP, Homo sapiens, UniProt P05067)
APP Aβ42 aggregates: Amyloid-beta precursor protein, Aβ42 aggregates (APP, Homo sapiens, UniProt P05067)
APP Aβ42 fibrils: Amyloid-beta precursor protein, Aβ42 fibrils (APP, Homo sapiens, UniProt P05067)

SMILES	target	test	test system	conditions	endpoint	value
O=C(O)CN(CCNc1ccc(N=Nc2cc(C(F)(F)F)cc(C(F)(F)F)c2)c2ccccc12)CC(=O)O	APP	binding, MST			Kd	0.732 µM
OC(Cc1cc(-c2ccc(C(O)C(F)(F)F)s2)sc1-c1ccc(-c2sc(-c3ccc(C(O)C(F)(F)F)s3)cc2CC(O)C(F)(F)F)s1)C(F)(F)F (centres unmarked)	Amyloid-beta precursor protein, Aβ40 aggregates (APP, Homo sapiens, UniProt P05067)	fluorescence		Aβ aggregated 200 min	Kd	3.27 µM and 3.3 µM
COc1cc(-c2nc3ccccc3s2)cc(CN2Cc3cccc(n3)CNCc3cccc(n3)C2)c1O	APP Aβ40 fibrils	Aβ fibril binding, ThT fluorescence competition		Cu complex of ligand, Aβ 2 µM, together with: thioflavin T 1 µM	Ki	0.275 ± 0.02 µM
CC(C)c1noc(-c2ccc(-n3cnc(C(=O)NCc4cccs4)c3)nc2)n1	Amyloid-beta precursor protein, amyloid-beta (APP, Homo sapiens, UniProt P05067)	binding, competition binding	Alzheimer brain homogenate	together with: [3H]PiB	Ki	> 1 µM
CN1CCN(C)CCN(Cc2c(O)ccc3nc(-c4ccc(N(C)C)cc4)sc23)CC1	APP Aβ40 fibrils	binding to Aβ aggregates, ThT competition		Aβ 5 µM, together with: ThT 2 µM	Ki	0.011 ± 0.007 µM
CN(C)c1ccc(-c2ccc3cc(OCC(O)CF)ccc3n2)cc1 (centres unmarked)	Amyloid-beta precursor protein, amyloid-beta plaques (APP, Homo sapiens, UniProt P05067)	binding, [3H]AV-45 displacement	Alzheimer's disease brain	together with: [3H]AV-45 10 nM	IC50	0.0537 µM and 0.0562 µM
COCCOCCOCCOC(=O)C(C#N)=Cc1ccc2cc(N3CCCCC3)ccc2c1	Amyloid-beta precursor protein, amyloid-beta aggregates (APP, Homo sapiens, UniProt P05067)	IgG-amyloid beta binding, inhibitor, ELISA		50 % inhibition, together with: aggregated amyloid beta	IC50	74 µM and 74.3 µM
COCCOCCOCCOC(=O)/C(C#N)=C/c1ccc2cc(NCCN3CCOCC3)ccc2c1	APP Aβ42 aggregates	binding, fluorescence titration		5% DMSO in water, together with: aggregated Abeta42 5 µM	Kd	6.7 ± 2.1 µM
O=C(O)c1ccc2[nH]cc(-c3ccc4cc(O)ccc4c3)c2c1	Amyloid-beta precursor protein, amyloid-beta 1-40 peptide (APP, Homo sapiens, UniProt P05067)	Aβ1-42 oligomerization, inhibitor, ELISA			IC50	9 µM
COc1ccc(C(=O)Nc2cc(-c3ccc(I)cc3)no2)cc1 [iodine-125 labelled]	APP Aβ42 fibrils	radioligand, radioligand saturation binding		APP 100 nM	Kd	0.00247 ± 0.0013 µM
CN(C)c1ccc(-c2nc3ccc(OCCCCCN4CCN5CCN(CC4)CC(=O)[O][Al]([F])[O]C(=O)C5)cc3s2)cc1	Amyloid-beta precursor protein, fibril (APP, Homo sapiens, UniProt P05067)	ligand displacement, radioligand			Ki	0.0113 µM
O=C1C=C2OC3(O)CC(=O)c4c(O)cc(O)cc4C3=C2c2cc(O)cc(O)c21 (centres unmarked)	APP	amyloid aggregation, inhibitor, fluorescence			IC50	3.9 µM
CN(C)c1ccc(C=C(C#N)C(=O)OCC(O)CO)cc1 (centres unmarked)	APP Aβ42 aggregates	binding, fluorescence titration		together with: pre-aggregated Aβ(1-42) 5.0 µM	Kd	3.3 µM
COc1ccc(-c2cc(=O)c3c(O)cc(O)c(-c4cc(-c5cc(=O)c6c(O)cc(OC)cc6o5)ccc4OC)c3o2)cc1	APP Aβ42 fibrils	amyloid-beta 1-42 disaggregation, thioflavin T fluorescence		7 h, 37 °C, together with: 5 µM thioflavin T	EC50	> 10 µM

Excerpt of the above:
SMILES	target	test	test system	conditions	endpoint	value
CN1CCN(C)CCN(Cc2c(O)ccc3nc(-c4ccc(N(C)C)cc4)sc23)CC1	APP Aβ40 fibrils	binding to Aβ aggregates, ThT competition		Aβ 5 µM, together with: ThT 2 µM	Ki	0.011 ± 0.007 µM
CN(C)c1ccc(-c2ccc3cc(OCC(O)CF)ccc3n2)cc1 (centres unmarked)	Amyloid-beta precursor protein, amyloid-beta plaques (APP, Homo sapiens, UniProt P05067)	binding, [3H]AV-45 displacement	Alzheimer's disease brain	together with: [3H]AV-45 10 nM	IC50	0.0537 µM and 0.0562 µM
